Results collected from several papers.
Parts stem from different laboratories: compare values within a part only. Substitutions count along the parent as printed.

Sample 1
Target: CCNF, cyclin fold, Cln2 fusion (human)
Technique: yeast growth competition, sequencing
Sample: yeast
Setting: strong parent motif
Reference: not given
Reading: higher = stronger binding
Quantity: normalised enrichment score
Starting sequence: CDC25A docking peptide (human); PPHRRRLLFACSP
PPHRRRLAFACSP [L8A]: 5.32
PPHRPRLLFACSP [R5P]: 0.57
PPHRIRLLFACSP [R5I]: 2.29
PPHRRRLMFACSP [L8M]: 7.72
PPHRRRLLFACLP [S12L]: 6.61
PPHRRRWLFACSP [L7W]: 2.7
PPHRRRLLFAPSP [C11P]: 8.82
PPHRRCLLFACSP [R6C]: 4.97
PPQRRRLLFACSP [H3Q]: 8.56
PPHRRRLLFECSP [A10E]: 9.25
PNHRRRLLFACSP [P2N]: 6.96
PPHRRRLLFVCSP [A10V]: 7.41
PPHRRNLLFACSP [R6N]: 2.18
PPHLRRLLFACSP [R4L]: 3.12
PPHRRRLLFACSI [P13I]: 7.26
PPHRRRLIFACSP [L8I]: 8.87
HPHRRRLLFACSP [P1H]: 7.67
PPHRRSLLFACSP [R6S]: 2.78

Sample 2
Target: ABI1, truncated, D143A, DHFR fusion (Arabidopsis thaliana)
Technique: DHFR PCA, deep sequencing
Sample: yeast
Setting: methotrexate growth selection, single substitutions
Added: (+)-ABA 4.8 µM
Reference: wild-type fitted maximum
Reading: higher = stronger binding
Quantity: relative binding score
Starting sequence: PYL1, truncated, DHFR fusion (Arabidopsis thaliana); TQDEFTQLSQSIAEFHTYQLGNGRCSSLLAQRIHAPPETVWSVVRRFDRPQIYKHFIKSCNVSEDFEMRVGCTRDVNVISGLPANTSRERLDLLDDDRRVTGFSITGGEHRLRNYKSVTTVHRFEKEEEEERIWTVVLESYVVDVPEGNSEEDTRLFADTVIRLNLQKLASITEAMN
T73L: 66.7%
I12P: 2.17%
R74A: 1.51%
F103V: -5.59%
D153Y: 1.32%
D75L: 81.8%
G71D: -1.34%
T17L: 17%
Q51T: 29.8%
L164G: 16.1%
I162Q: -13.6%
T101P: -6.93%
G21S: 74.8%
V143Y: 3.06%
G148A: 17.8%
D144N: 15.4%

Sample 3
Target: Prothrombin, mature alpha-thrombin (F2, Homo sapiens, UniProt P00734)
Technique: aptamer microarray, sandwich
Form: DNA with 2'F-ANA
Sample: in vitro
Concentration: 200 nM
Setting: whole 15-mer aptamer, many near background
Added: Cy3 exosite-II aptamer, 400 nM
Reading: higher = stronger binding
Quantity: mean fluorescence intensity
Oligonucleotide: GGTTGGTGTGGTTGG
2'F-ANA at 1 2 3 4 5 10 11 12 15: 49.4 a.u.
2'F-ANA at 1 3 6 7 11 15: 208 a.u.
2'F-ANA at 1 4 9 11 12 13: 138 a.u.
2'F-ANA at 1 5 6 7 9 12 13 14 15: 45.8 a.u.
2'F-ANA at 1 3 7 8 9 10 11 12: 112 a.u.
2'F-ANA at 1 2 4 7 11 12 13 14: 101 a.u.
2'F-ANA at 1 2 3 6 7 9 13: 119 a.u.
2'F-ANA at 2 3 5 6 7 9 10 12 15: 81.7 a.u.
2'F-ANA at 1 2 3 4 5 6 8 9 12 13 15: 70.6 a.u.
2'F-ANA at 4 6 7 8 9 11 13 15: 179 a.u.
2'F-ANA at 1 5 6 7 8 9 10 14 15: 58.3 a.u.
2'F-ANA at 3 4 5 7 8 9 10 12 15: 67.1 a.u.
2'F-ANA at 1 2 8 10 12 14 15: 49.1 a.u.
2'F-ANA at 1 3 4 5 9 12 15: 109 a.u.
2'F-ANA at 1 3 4 10 12 14: 51.1 a.u.
2'F-ANA at 4 7 8 13 15: 292 a.u.

Sample 4
Target: Centromere-binding protein 1, full length, His-tagged (CBF1, Saccharomyces cerevisiae, UniProt P17106, residues 1-351)
UniProt P17106, sequence (whole entry, looked up): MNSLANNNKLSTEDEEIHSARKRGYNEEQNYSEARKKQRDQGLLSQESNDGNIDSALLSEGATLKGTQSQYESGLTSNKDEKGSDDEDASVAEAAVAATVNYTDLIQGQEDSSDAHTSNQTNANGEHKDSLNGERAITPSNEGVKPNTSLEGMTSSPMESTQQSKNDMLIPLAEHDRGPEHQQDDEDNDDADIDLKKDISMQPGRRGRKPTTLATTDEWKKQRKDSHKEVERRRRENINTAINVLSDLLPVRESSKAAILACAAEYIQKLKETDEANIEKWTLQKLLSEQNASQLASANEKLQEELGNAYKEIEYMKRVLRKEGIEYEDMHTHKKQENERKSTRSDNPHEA
Technique: competition protein-binding microarray
Form: double-stranded DNA, one strand shown
Sample: in vitro
Concentration: 2 µM
Setting: whole 60-bp probe, lowest competitor level
Added: Pho4 competitor, 0.05 µM
Reading: higher = stronger binding
Quantity: fluorescence intensity
Shared flanks, not repeated: … GTCTTGATTCGCTTGACGCTGCTG
TGAGTTGTCTTCCATGTCGTGCTTTGTAATTCCTCA: 90.1 a.u.
CGTCGTCTGGGACGTAGTGTGACAGGATGTCTTCCA: 73.6 a.u.
TGCTGTAAGCAAAAGCACGGGTGGCCAAAGCAAAGG: 74.5 a.u.
GCTCAAAAACCCCGTCACGTCATAAATCTTTCTGTT: 111 a.u.
GCATTTGTCTTCTTTCATTTGAAATCTTCATAATCT: 88.4 a.u.
CTTTTGGGCGGCCATCACGCAGATGTGGTGTTTGAG: 75.4 a.u.
GAAAGACGGACATACCGCGTGCGGAGAACTTTTTCA: 75.1 a.u.
GTATTGTAAGACTGTCATGTGATTGCTGTCGCGTTC: 1420 a.u.
CCGGCGCGGTCGTACATCGTGACGGTCCTGCGCTGG: 81.1 a.u.
TTATCATATACGGTGTTAGAAGATGACGCAAATGAT: 87.8 a.u.
GGTCCAGCCTCGAAACTCGTGACGGCATTTGAGGTG: 408 a.u.
CGTCCTAGTGATTGGTGAGTGGGTGCCATGAGGAAG: 95.8 a.u.
CTGCTGCTGGTCTTGGCCGTGACGGGTGATACGAGT: 81 a.u.
CCCAGCCCTGGGAGCCACGTGATCCCGGTCCTGGTT: 4170 a.u.
TTCGCCAGTGCTTTGCCCGTGCAAATCGGATGCTGG: 78.6 a.u.
AGTGTCTCCTCAGACGACGTGTCGGTTTTGTATATC: 70.8 a.u.
CATACCCAACCTTGAGTCGTGGGTGAAGATATTTGT: 70.6 a.u.
ATGGTTTATCCCGGCCACGTGTGTTACCTCCGGTGA: 923 a.u.
AAATTACTAAGTTGTCGCGTGGGTGACGCCGTATGA: 84.2 a.u.
CTAACGAAGGTTTGTCACCCAACTTACAAGCCAAGT: 75.5 a.u.
GCGGAGGGGGCAGCCCATGTGCTGCGATTCGCTCCC: 134 a.u.
GTCGCGTAATTTTCTTGAAACCATCCATTCACCGAT: 80.1 a.u.
CTTCTGTAAATTTGTCACTCTACTTGACGCGCCCCG: 79.7 a.u.

Sample 5
Target: Sal-like protein 4, full length isoform B (SALL4, Homo sapiens, UniProt Q9UJQ4-2, residues 1-616)
Technique: universal PBM
Form: double-stranded DNA, one strand shown
Sample: in vitro
Concentration: not given
Setting: 8-mer, flanks averaged, mean of replicates
Reading: higher = stronger binding
Quantity: E-score
CTCGTTTA: 0.0954
CACGGAGG: -0.226
CACACTGG: -0.189
GGAGGGTA: -0.126
ATATTGGA: 0.355
GAAAATCA: 0.239
CCGACGAC: -0.121
ACGTATCG: 0.135
CAGGCCCA: -0.323
TGAACTCA: 0.00397
GACGATGC: -0.0577
GTTGAACA: 0.103
GTACACCA: -0.0429
CTATGTAA: 0.242
GATCGCAA: 0.00737
AATACAGC: 0.0345
CCGAGGCA: -0.142
TACAAAAA: 0.364
ACTCAGTA: 0.0162
AACATGCG: 0.0153

Sample 6
Target: Histone acetyltransferase KAT6A, both winged helices, GST fusion (KAT6A, Homo sapiens, UniProt Q92794, residues 1-181)
Technique: protein binding microarray
Form: double-stranded DNA, one strand shown
Sample: in vitro
Concentration: not given
Setting: 8-mer, flanks averaged, mean of 2 arrays, mostly near background
Reference: not given
Reading: higher = stronger binding
Quantity: E-score
Target sequence (chain): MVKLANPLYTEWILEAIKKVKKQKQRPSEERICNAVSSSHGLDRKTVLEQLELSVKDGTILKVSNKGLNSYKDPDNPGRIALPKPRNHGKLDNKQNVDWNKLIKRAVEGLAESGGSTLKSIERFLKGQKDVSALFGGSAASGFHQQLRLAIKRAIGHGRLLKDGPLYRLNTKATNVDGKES
CCCTATCC: -0.222
AAGTGATG: -0.246
AGCCGTGC: 0.23
AGTACCAA: -0.132
TAAGGCGA: -0.0669
ACCCGTTG: 0.214
ACCACCAC: -0.222
CCAGGCAG: -0.145
ACGATGAC: 0.00246
GCGACGTA: 0.103
ATCTAGCC: -0.0685
CCAGTAAA: 0.00592
ATTACGGA: 0.236
GACAACGA: 0.0118
GTATGCGA: 0.188
GCTAAGTA: -0.114

Sample 7
Target: JUN, bZIP domain (human)
Technique: DHFR protein complementation
Sample: yeast
Setting: single substitutions, most at no-binding floor
Reference: wild-type JUN-FOS pair
Reading: higher = stronger binding
Quantity: binding fitness
Starting sequence: JUN, bZIP domain (human); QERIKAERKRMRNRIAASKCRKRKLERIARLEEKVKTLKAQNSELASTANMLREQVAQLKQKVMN; partner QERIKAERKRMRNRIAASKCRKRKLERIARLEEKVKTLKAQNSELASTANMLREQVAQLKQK
I28K: -0.95 natural log
K39C: -0.465 natural log
A49L: -0.446 natural log
E33D: -0.308 natural log
K39A: -0.392 natural log
N42E: -0.957 natural log
R30D: -0.129 natural log
K36V: -0.347 natural log
T37S: -0.245 natural log
A46K: -0.179 natural log
E44V: -0.334 natural log
N42H: -0.383 natural log

Repeated from above (sample 5):
GATCGCAA: 0.00737
GTACACCA: -0.0429
CTATGTAA: 0.242
ACTCAGTA: 0.0162
CAGGCCCA: -0.323
CACGGAGG: -0.226
GGAGGGTA: -0.126
